# Experimental data collected from several papers.
# Parts stem from different laboratories: compare values within a part only. Substitutions count along the parent as printed.

# Sample 1
# Target: Centromere-binding protein 1, full length, His-tagged (CBF1, Saccharomyces cerevisiae, UniProt P17106, residues 1-351)
# UniProt P17106, sequence (whole entry, looked up): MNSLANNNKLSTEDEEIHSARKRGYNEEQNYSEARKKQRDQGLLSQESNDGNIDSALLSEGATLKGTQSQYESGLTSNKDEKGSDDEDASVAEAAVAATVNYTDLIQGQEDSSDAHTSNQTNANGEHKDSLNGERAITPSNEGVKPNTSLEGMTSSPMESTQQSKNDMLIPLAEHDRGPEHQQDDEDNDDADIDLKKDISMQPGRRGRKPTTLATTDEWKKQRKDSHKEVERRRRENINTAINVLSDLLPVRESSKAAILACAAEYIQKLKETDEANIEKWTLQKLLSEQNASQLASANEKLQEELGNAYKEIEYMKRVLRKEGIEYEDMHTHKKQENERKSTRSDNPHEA
# Technique: competition protein-binding microarray
# Form: double-stranded DNA, one strand shown
# Sample: in vitro
# Tested at: 2 µM
# Notes: whole 60-bp probe, lowest competitor level
# Together with: Pho4 competitor, 0.05 µM
# Reading: higher = stronger binding
Sequence,fluorescence intensity
TCCTTCTTTATCCCACTCATGACAATCTGCAATATAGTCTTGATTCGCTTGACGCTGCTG,94.3 a.u.
AGGACAAGTTGTAGTCACCTGGCAAACCGAAAACGGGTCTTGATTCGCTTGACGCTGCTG,157 a.u.
ATCATACCACAGTACCCCGTGGAGTTAATGTTTAACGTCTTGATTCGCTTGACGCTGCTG,108 a.u.
TCTTTTTTTTATTTGCACGTGCATCGAGGGGATCGAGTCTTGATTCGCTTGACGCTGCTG,4220 a.u.
CCGCCCGGTGCAATACACACGGCAAGCACTTTATCAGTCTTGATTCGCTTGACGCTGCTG,73.1 a.u.
AAAGCGGTAATTTTTCACGTGGCGTCAAATATCTATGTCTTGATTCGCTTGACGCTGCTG,1070 a.u.
AAAGGCACCAAGATTCACCTGACGAAAGGCTCCCCCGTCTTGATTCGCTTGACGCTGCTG,119 a.u.
CGTCCTAGTGATTGTTCTGTGGGTGCCATGAGGAAGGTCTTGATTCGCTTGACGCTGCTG,72 a.u.
CCATGGATGAAGTGTATTATAAATTTGGGTTAGGCAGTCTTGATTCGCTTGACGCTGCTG,72.5 a.u.
CTAACGAAGGTTTTTCACGTGAGCTACAAGCCAAGTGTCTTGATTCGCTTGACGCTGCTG,1150 a.u.
GCCAGAGAGTTATTTCACGTGCTTTGTTCGGCCCGCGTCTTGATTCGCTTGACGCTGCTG,815 a.u.
AAATTACTAAGTTGCACGGTGGGTGACGCCGTATGAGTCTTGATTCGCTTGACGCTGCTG,67.7 a.u.
GATGTTCTTTTTCGCCACATGCTTCATGACGATTTAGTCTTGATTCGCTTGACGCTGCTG,135 a.u.

# Sample 2
# Target: RING finger protein unkempt homolog, zinc fingers 1-6, GST-SBP tag (UNK, Homo sapiens, UniProt Q9C0B0, residues 30-357)
# UniProt Q9C0B0, sequence (30-357, looked up): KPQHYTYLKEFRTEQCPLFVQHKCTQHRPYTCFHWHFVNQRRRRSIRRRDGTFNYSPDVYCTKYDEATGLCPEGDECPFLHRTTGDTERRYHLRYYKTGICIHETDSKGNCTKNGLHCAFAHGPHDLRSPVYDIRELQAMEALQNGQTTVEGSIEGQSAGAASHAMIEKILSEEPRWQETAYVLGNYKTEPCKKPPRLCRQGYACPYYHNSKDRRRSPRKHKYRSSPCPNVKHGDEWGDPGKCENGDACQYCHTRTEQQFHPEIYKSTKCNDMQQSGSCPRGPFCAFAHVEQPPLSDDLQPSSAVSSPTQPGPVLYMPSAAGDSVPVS
# Technique: RNA Bind-n-Seq
# Form: RNA
# Sample: in vitro
# Tested at: not given
# Notes: RNA with constant flanks, human and mouse sites, ends assumed
# Baseline: input RNA pool
# Reading: higher = stronger binding
Sequence,bound/input enrichment
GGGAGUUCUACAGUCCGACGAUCGGUGGGGAGGGCAAUGUGGGGGCAGGGGAACAUGUCAUUGUGAUGACUUUUUUGAUAUUCAUUAGAAACAAUACAUCCUUUCUGAGAUAUUUACAGUAUUAUUAAAAAAUGAAAAAGGUUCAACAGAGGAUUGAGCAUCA,0.715 ratio
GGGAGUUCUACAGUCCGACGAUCUAAUCUCAUUCCUUUUGAUUGUUAAUGUUUUUGUUCAGUUGUUGUUGUUUGUUGGGUUUUUGUUUCUGUUGGUUAUUUUUGGACACUGGUGGCUCAGCAGUCUAUUUAUAUUUUCUAUAUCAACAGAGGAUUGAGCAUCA,0.879 ratio
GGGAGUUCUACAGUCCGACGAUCAAGUGUGUUUCCACUCAAAGAAAGAAAAGGUUCACGAAGAACAUAAAUGCUGGCUUUUCCCUUAGCCCCAAUAUCAGUAAACAUCUGGCCAGCCUAUCAGUGGUUGGAAACAGGAGUCCCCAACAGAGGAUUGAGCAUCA,1.72 ratio
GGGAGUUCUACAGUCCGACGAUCUAUGACAGAAUGGAUUAUGAAGAUGACAGAUUAAGAGAUGGAGAAAGGUGUAGGGAUGAUUCUUUUUUUGGUGAGACCUCGCAUAACUAUCAUAAAUUUGACAGUGAGUAUGAGAGAAUGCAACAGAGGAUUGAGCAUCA,0.697 ratio
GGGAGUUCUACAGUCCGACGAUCUCUGUAAGGAGUAAUUUUGAUCAAAAGACGUGUUACUUCCCUUUGAAGGAAAAGUUUUUAGUGUGUAUUGUACAUAAAGUCGGCUUCUCUAAAGAACCAUUGGUUUCUUCACAUCUGGGUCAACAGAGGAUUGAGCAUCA,0.59 ratio
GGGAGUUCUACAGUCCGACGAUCGAUGCAGAAAAUAGUCAGGCACAGGAAACUUUUCCAAAGACUGUUGGACUAGAGGACCGAAGUCUAAAGAUCAUCAAAAGAAGCAAGAAACCAGACCUGCAGAUCUACCAGCCUGGAAGGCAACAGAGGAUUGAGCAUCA,0.373 ratio
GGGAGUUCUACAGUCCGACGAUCUCAGAUAACCUUACCCGGGCUUGUAGCCUAGUGCGGGAGGCAGCAAAGCAAGGUGCCAACAUAGUUUCUCUGCCUGAGUGCUUCAAUUCUCCAUAUGGAACAACCUACUUUCCUGACUAUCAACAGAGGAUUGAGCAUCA,0.243 ratio
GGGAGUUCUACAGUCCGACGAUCCGCCUUCUCAACCAGCAGCGCGAGUAUGAGGCCCAGCAGCAGUAUCGCCAACACAUCCAGGUUUUCAUCGACCGUUUUCGAUACAAUGCAAACAGAGCCUCUCAAGUGCAGAGUAAACUGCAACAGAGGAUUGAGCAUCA,0.114 ratio

# Sample 3
# Target: CCND3, cyclin fold, Cln2 fusion (human)
# Technique: yeast growth competition, sequencing
# Sample: yeast
# Notes: weak parent motif
# Baseline: not given
# Reading: higher = stronger binding
# Starting sequence: CCP110 docking peptide (human); EKVKRRLDLDIDG; partner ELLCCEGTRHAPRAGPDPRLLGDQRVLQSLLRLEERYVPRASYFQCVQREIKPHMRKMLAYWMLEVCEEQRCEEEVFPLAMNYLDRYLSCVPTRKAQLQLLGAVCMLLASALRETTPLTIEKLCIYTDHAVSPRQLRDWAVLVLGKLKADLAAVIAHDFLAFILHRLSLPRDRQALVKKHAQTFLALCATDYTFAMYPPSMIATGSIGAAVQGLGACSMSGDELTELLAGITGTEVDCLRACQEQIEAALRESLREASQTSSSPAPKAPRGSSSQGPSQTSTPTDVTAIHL
Change,normalised enrichment score
D12A,0.162
K4A,-0.0389
R5A,0.0962
I11A,0.0797
D8A,0.136
R5K L9F,0.155
E1A,0.134

# Mixed results
Molecule,target,assay,test system,conditions,how to read,endpoint,result
"PhoQ, residues 284 288 289 292 302 303 SLKLQV","PhoP, residues 12 14 15 18 19 SPWRL (Escherichia coli, UniProt P23836)","Sort-seq, item: YFP reporter",E. coli,"PhoQ-PhoP variant library, together with: 10 µM Mg2+","baseline: high Mg2+ state, higher = stronger signaling",fold induction,14.9

# Some of these lines once more (sample 2):
Sequence,bound/input enrichment
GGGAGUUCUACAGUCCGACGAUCGGUGGGGAGGGCAAUGUGGGGGCAGGGGAACAUGUCAUUGUGAUGACUUUUUUGAUAUUCAUUAGAAACAAUACAUCCUUUCUGAGAUAUUUACAGUAUUAUUAAAAAAUGAAAAAGGUUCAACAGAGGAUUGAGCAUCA,0.715 ratio
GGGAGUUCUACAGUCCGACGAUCGAUGCAGAAAAUAGUCAGGCACAGGAAACUUUUCCAAAGACUGUUGGACUAGAGGACCGAAGUCUAAAGAUCAUCAAAAGAAGCAAGAAACCAGACCUGCAGAUCUACCAGCCUGGAAGGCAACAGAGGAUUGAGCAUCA,0.373 ratio
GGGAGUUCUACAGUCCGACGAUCCGCCUUCUCAACCAGCAGCGCGAGUAUGAGGCCCAGCAGCAGUAUCGCCAACACAUCCAGGUUUUCAUCGACCGUUUUCGAUACAAUGCAAACAGAGCCUCUCAAGUGCAGAGUAAACUGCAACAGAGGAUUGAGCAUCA,0.114 ratio
